Assay results pooled from the literature.
Every numbered part comes from another study and shows a few of its results, in no order.

Set 1
Target: Sal-like protein 4, full length isoform A (SALL4, Homo sapiens, UniProt Q9UJQ4, residues 1-1053)
Sequence of UniProt Q9UJQ4 (whole entry, looked up): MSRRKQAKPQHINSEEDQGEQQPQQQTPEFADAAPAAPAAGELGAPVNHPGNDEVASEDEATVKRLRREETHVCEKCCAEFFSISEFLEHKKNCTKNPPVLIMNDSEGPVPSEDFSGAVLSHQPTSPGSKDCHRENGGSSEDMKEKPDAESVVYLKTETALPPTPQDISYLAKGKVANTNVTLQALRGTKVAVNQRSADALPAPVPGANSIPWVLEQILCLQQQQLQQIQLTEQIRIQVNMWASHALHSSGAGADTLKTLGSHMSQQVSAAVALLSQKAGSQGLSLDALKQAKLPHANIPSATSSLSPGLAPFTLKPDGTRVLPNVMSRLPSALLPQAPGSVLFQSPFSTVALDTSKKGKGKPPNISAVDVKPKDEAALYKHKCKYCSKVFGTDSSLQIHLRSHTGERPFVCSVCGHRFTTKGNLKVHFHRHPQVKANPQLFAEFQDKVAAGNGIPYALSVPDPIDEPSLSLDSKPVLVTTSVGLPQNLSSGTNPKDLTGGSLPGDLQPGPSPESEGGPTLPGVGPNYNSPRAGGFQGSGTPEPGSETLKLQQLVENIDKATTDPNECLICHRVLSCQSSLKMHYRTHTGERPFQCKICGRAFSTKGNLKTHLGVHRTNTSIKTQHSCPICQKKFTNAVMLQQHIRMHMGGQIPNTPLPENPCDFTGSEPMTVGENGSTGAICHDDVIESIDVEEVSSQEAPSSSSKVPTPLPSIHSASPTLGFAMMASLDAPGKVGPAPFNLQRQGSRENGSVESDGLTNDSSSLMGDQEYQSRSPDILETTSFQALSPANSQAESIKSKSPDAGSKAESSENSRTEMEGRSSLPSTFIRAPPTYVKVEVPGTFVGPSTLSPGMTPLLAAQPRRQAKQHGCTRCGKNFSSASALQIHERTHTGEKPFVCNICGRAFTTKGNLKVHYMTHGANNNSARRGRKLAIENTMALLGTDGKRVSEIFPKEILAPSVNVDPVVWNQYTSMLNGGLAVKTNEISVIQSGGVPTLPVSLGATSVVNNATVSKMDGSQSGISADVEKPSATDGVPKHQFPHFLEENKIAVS
Method: universal PBM
Form: double-stranded DNA, one strand shown
Medium: in vitro
Concentration: 600 nM
Setting: 8-mer, flanks averaged, mean of replicates
Direction: higher = stronger binding
`ACAAAGCA` has an E-score of 0.208.
With `CCGCCTCG` the E-score was -0.272.
`CCTAGGAA` has an E-score of -0.0332.
For `CTCCTTGA`, the E-score was -0.0539.
`CCCCCAGA` gave an E-score of -0.274.
For `GGCTCCCA`, the E-score was -0.339.

Set 2
Target: Interferon regulatory factor 7, full length, phosphomimetic (IRF7, Homo sapiens, UniProt Q92985, residues 1-503, S471D/S472D/S475D/S476D/S477D/S483D/S484D/S487D)
Method: protein-binding microarray
Form: double-stranded DNA, one strand shown
Medium: in vitro
Concentration: 2200 nM top
Setting: 60-bp whole probe
Together with: salmon DNA 0.4 mg/ml
Reference: random background probes
Direction: higher = stronger binding
All sequences stand within: GCCTAGCAC … GTCTTGATTCGCTTGACGCTGCTG
Target sequence (chain): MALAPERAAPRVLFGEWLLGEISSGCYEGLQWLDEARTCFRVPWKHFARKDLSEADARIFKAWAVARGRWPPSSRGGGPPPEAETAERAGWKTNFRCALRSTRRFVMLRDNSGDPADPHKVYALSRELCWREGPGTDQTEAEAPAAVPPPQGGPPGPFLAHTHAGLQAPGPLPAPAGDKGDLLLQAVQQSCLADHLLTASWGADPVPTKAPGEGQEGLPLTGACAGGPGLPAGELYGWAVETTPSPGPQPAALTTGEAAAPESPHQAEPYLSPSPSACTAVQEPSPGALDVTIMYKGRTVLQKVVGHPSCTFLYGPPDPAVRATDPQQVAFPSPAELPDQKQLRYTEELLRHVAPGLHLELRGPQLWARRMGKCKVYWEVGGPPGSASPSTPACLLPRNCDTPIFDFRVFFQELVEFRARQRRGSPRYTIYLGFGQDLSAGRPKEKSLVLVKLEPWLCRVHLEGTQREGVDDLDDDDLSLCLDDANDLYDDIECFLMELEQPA
`TCAGCTCACACCTGTCATACTGTGCTA` — result for “fitted relative affinity”: 0.81 z-score.
Under “fitted relative affinity”, `TCATATATATCATTTAAACTGTGCTAG` is recorded as 0.653 z-score.
`TTAGGACCGCTTCTCCTTTAGTGCTAG` — result for “fitted relative affinity”: 0.673 z-score.
`ATAGGACTGGGGTATCGGTTAGTGCTA` — result for “fitted relative affinity”: -0.481 z-score.
Under “fitted relative affinity”, `GACAGACTGGACTATCGGGACGTGCTA` is recorded as -0.445 z-score.
`TGAGGTATCGGGACTGGGTTAGTGCTA` — result for “fitted relative affinity”: -0.591 z-score.
`TTAGGTCTCGGTTACGGTTAGTGCTAG`: “fitted relative affinity” 0.937 z-score.
For `TTATATATCAGTATCGATTAGTGCTAG`, “fitted relative affinity” read 0.72 z-score.
`GACGGTTTCGGGTATCGGGAGGTGCTA`: “fitted relative affinity” 5.65 z-score.

Set 3
Target: Histone acetyltransferase KAT6A, both winged helices, GST fusion (KAT6A, Homo sapiens, UniProt Q92794, residues 1-181)
Method: protein binding microarray
Form: double-stranded DNA, one strand shown
Medium: in vitro
Concentration: not given
Setting: 8-mer, flanks averaged, mean of 2 arrays, mostly near background
Reference: not given
Direction: higher = stronger binding
Residues (chain): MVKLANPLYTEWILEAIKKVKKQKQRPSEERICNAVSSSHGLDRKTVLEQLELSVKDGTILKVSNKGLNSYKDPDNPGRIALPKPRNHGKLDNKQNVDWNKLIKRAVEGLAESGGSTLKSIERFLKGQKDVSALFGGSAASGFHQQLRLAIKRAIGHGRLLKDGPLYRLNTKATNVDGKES
The E-score of `CTTGTCGC` is reported as 0.136.
For `CCTCCGAA`, the E-score was -0.0801.
`TATCCTAA` has an E-score of -0.142.
`ATCACTGG` gave an E-score of -0.11.
`TTCTAAAA` gave an E-score of -0.0404.
With `CAAGATCG` the E-score was 0.151.
`ACTCGCCG` gave an E-score of 0.266.
For `CTCAGCTC`, the E-score was -0.151.
`ACTTGGTC` gave an E-score of -0.0893.

Other studies, line by line
`PhoQ, residues 284 288 289 292 302 303 AEGLLW` has a fold induction of 1.06 (PhoP, residues 12 14 15 18 19 NHFRA (Escherichia coli, UniProt P23836); Sort-seq, item: YFP reporter; E. coli; PhoQ-PhoP variant library, together with: 10 µM Mg2+; reference: high Mg2+ state, higher = stronger signaling).

Excerpt of the above (set 1):
For `CTCCTTGA`, the E-score was -0.0539.
`CCTAGGAA` has an E-score of -0.0332.
`CCCCCAGA` gave an E-score of -0.274.
